Results gathered from unrelated publications.
Every numbered part comes from another study and shows a few of its results, in no order. Positions count from the first letter of the parent shown.

Study 1 — technique: protein-binding microarray; molecule type: double-stranded DNA, one strand shown; sample: in vitro; concentration: 2540 nM top; notes: 60-bp whole probe; added: salmon DNA 0.4 mg/ml; relative to: random background probes; reading: higher = stronger binding
Target: Interferon regulatory factor 3, full length, phosphomimetic (IRF3, Homo sapiens, UniProt Q14653, residues 1-427, S386D/S396D/S398D/S402D/T404D/S405D)
Constant ends, left off below: GCCTAGCAC … GTGCTAGGTCTTGATTCGCTTGACGCTGCTG
Residues (chain): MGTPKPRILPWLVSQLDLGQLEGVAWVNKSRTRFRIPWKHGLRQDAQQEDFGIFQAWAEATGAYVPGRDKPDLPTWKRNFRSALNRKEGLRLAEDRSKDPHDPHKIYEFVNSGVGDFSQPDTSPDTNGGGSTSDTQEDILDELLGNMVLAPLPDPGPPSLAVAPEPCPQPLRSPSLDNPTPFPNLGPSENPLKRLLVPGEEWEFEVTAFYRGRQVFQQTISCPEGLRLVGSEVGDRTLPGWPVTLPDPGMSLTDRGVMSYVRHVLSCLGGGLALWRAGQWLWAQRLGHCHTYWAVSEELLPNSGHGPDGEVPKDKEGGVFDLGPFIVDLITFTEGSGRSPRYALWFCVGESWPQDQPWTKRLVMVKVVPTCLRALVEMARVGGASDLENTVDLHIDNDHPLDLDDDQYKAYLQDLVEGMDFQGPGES
| Sequence | fitted relative affinity |
| --- | --- |
| TCACTACTGCATTTTTTACT | 0.215 z-score |
| GACGGTTTCGGTTTCGGGAG | 10.7 z-score |
| TCATCTTCCCTTTTAAGACT | 4.35 z-score |
| TGAGGTTTCGGTCTCGGTTA | 8.18 z-score |
| GAGGGTCTCGGTCTCGGGAC | -0.0341 z-score |
| CTAATTTTTACTTTCTGAAT | 3.39 z-score |
| TTAGGAATCCTTATCCTTTA | 2.68 z-score |

Study 2 — technique: universal PBM; molecule type: double-stranded DNA, one strand shown; sample: in vitro; concentration: 600 nM; reading: higher = stronger binding
Target: Sal-like protein 4, full length isoform A (SALL4, Homo sapiens, UniProt Q9UJQ4, residues 1-1053)
UniProt Q9UJQ4, sequence (whole entry, looked up): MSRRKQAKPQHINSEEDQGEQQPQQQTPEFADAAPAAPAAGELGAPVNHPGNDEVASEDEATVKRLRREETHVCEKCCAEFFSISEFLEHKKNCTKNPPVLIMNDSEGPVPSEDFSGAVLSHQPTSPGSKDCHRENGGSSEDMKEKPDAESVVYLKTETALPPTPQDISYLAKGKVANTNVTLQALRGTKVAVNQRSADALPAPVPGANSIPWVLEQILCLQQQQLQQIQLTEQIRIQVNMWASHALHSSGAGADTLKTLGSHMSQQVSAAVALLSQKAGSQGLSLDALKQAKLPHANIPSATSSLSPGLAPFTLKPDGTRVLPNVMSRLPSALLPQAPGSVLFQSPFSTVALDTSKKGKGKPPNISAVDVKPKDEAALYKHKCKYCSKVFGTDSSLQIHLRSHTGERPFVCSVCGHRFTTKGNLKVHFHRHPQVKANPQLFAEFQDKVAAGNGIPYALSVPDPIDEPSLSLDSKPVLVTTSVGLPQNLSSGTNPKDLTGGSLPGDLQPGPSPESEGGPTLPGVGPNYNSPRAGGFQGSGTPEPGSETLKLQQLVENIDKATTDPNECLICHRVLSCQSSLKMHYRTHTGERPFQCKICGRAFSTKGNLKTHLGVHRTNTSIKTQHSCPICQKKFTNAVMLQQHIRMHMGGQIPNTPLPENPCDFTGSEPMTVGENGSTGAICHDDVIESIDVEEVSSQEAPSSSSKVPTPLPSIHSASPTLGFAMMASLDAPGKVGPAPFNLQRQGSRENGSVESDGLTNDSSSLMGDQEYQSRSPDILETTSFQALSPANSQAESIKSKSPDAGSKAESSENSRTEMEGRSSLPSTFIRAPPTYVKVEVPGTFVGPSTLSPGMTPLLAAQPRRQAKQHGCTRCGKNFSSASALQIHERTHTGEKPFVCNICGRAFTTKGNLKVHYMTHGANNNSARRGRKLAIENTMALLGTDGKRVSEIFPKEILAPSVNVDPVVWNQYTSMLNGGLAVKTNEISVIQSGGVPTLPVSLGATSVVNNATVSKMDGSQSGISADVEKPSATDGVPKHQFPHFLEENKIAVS
Notes: 8-mer, flanks averaged, mean of replicates
| Sequence | E-score |
| --- | --- |
| AAAGTCCA | -0.0648 |
| GAGACCGC | -0.365 |
| ACCTCCGT | -0.196 |
| CAAAGTCG | -0.134 |
| ATCCGGTA | -0.19 |
| ACTCTGCG | -0.116 |
| ACCTTTGA | 0.112 |
| AGTGCCTC | -0.221 |

Study 3 — target: CCNA1, cyclin fold, Cln2 fusion (human); technique: yeast growth competition, sequencing; sample: yeast; notes: weak parent motif; relative to: not given; reading: higher = stronger binding
Starting sequence: BRCA2 docking peptide (human); PSIKRNLLNEFDR
| Variant | normalised enrichment score |
| --- | --- |
| N6H | 0.598 |
| R5G | 0.139 |
| N6S | 0.667 |
| S2V | 0.371 |
| P1E | 0.713 |
| N6T | 0.324 |

Other studies, line by line
| Molecule | target | assay | system | setting | scale | endpoint | result |
| --- | --- | --- | --- | --- | --- | --- | --- |
| PhoQ, residues 284 288 289 292 302 303 SMMNNA | PhoP, residues 12 14 15 18 19 TTLRV (Escherichia coli, UniProt P23836) | Sort-seq, measured: YFP reporter | E. coli | PhoQ-PhoP variant library, added: 10 µM Mg2+ | relative to: high Mg2+ state, higher = stronger signaling | fold induction | 0.596 |

For quick reference, copied from above (study 1):
| Sequence | fitted relative affinity |
| --- | --- |
| TGAGGTTTCGGTCTCGGTTA | 8.18 z-score |
